Results collected from several papers.
Lines come from different studies, so protocols differ. Values joined by “and” are separate records of one study, mostly repeats; a detail may differ. ± marks the error that the study gave.
Gria1/Gria2: Glutamate receptor AMPA 1/2 (Gria1/Gria2, Rattus norvegicus, UniProt P19490+P19491)
Sodium- and chloride-dependent glycine transporter 2: Sodium- and chloride-dependent glycine transporter 2 (Homo sapiens, UniProt Q9Y345)

`O=C(Nc1ccccc1)C12CC3CC(C1)CC(n1cnc([N+](=O)[O-])n1)(C3)C2` gave a translation activity of 97.2% and 106% (Trypanosoma cruzi; reporter mRNA translation, inhibitor, item: Renilla luciferase mRNA; cell-free extract; concentration not given, test 1; baseline: positive over negative control).
`O=C(O)Cc1cc2c(cc1C(=O)c1cccc(Br)c1)OCO2`: “current amplitude ratio” 5.18 ± 0.3 (Gria1/Gria2; glutamate-evoked current, whole-cell patch clamp; HEK-293T; concentration not given; baseline: glutamate alone).
With `CCCCCCCCOP(=O)(Cc1ccccc1)O[C@@H]1O[C@H](CO)[C@@H](O)[C@H](O)[C@H]1F` (some centres unmarked) the relative activity was 0.03 (Lysosomal acid glucosylceramidase (GBA1, Homo sapiens, UniProt P04062, L483P); chaperone; MEF expressing GBA L444P; 100 µM, three days, then 24 h washout; baseline: untreated).
`O=C(O)C1CCCN(CCOCCCn2nnc(-c3ccccc3)c2-c2ccccc2)C1` (racemic) — result for “remaining specific binding”: 98.9 ± 3% (Sodium- and chloride-dependent glycine transporter 2; MS binding competition; 10 µM).
`Cc1cc(-c2ccccc2)cc(C(=O)NNS(=O)(=O)c2ccccc2)c1F` — result for “SPR binding response”: 0.329 RU (Histone acetyltransferase KAT5 (KAT5, Homo sapiens, UniProt Q92993); SPR; 17 µM; higher = more binding).
With `O=C(O)Cc1cc2c(cc1C(=O)c1ccccc1)OCO2` the current amplitude was 298 ± 27 pA (Gria1/Gria2; glutamate-evoked current, whole-cell patch clamp; HEK-293T; concentration not given, pH 7.4, holding potential -60 mV, together with: 10 mM glutamate).
`O=C(NC[C@@H](Cc1ccc(F)cc1)N1CCC(O)(C(F)(F)F)CC1)C1(c2ccc(Cl)cc2)CCCC1`: “EC50 fold change” 1.3 (Transient receptor potential cation channel subfamily A member 1 (TRPA1, Homo sapiens, UniProt O75762, V942A); calcium influx, agonist; baseline: V942A mutant over wild type).
`COc1cc2ncnc(Nc3ccc(Oc4ccccc4C)cc3)c2cc1OC` gave an activity of 120 ± 20% (SMUG1 (Homo sapiens, UniProt Q53HV7); enzyme activity, activator, fluorescence; 2 µM; baseline: control).
The specific binding of `O=C1c2sc(-c3ccc(N4CCC(CO)CC4)nc3F)nc2CCN1c1cccnc1` is reported as 0.069 nM (TAR DNA-binding protein 43, aggregated (TARDBP, Homo sapiens, UniProt Q13148); radioligand binding; control brain sarkosyl-insoluble extract; 26.56 nM).
For `NC(=NO)NCCC[C@H](N)C(=O)O`, “ΔH second site” read 2.4 ± 0.3 kcal/mol (Arginase (Schistosoma mansoni, UniProt Q6WVP6); isothermal titration calorimetry).
`CC(=O)c1cnc(NS(=O)(=O)c2ccc(C(F)(F)F)c(Cl)c2)nc1`: “oxidized product ratio” 0.149 and 0.161 and 0.181 and 0.184 (17-beta-hydroxysteroid dehydrogenase 13 (Homo sapiens, UniProt Q7Z5P4); enzyme activity; human hepatocytes, HSD17B13 siRNA, culture medium; 24 h; baseline: scramble siRNA control).
`CCCCCCCCCCCCC/C=C/C=O`: “isoTOP-ABPP competition ratio” 1.1 (Protein deacetylase HDAC6 (HDAC6, Homo sapiens, UniProt Q9UBN7); competitive isoTOP-ABPP; Ramos soluble proteome; 100 µM, together with: iodoacetamide probe; baseline: DMSO over compound-treated, higher = stronger cysteine blockade).
`CN(C)CCCSC(=S)N1CCN(C(=O)/C=C/c2coc3ccccc3c2=O)CC1` — result for “relative protein level”: 0.866 and 0.735 and 0.72 (Nucleoprotein (N, Tomato spotted wilt virus, UniProt P25999); immunoblot, item: N protein; concentration not given, 100 min, 25 °C, together with: RNA; baseline: level at 0 min).
Under “remaining specific binding”, `CC1=CC(C)=[N+]2C1=C(CCCO)c1c(C)cc(C)n1[B-]2(F)F` is recorded as 109 ± 10.4% (Sodium- and chloride-dependent glycine transporter 2; MS binding competition; 10 µM).
With `O=C(O)Cc1cc2c(cc1C(=O)c1cccc(I)c1)OCO2` the current amplitude was 172 ± 16 pA (Gria1/Gria2; glutamate-evoked current, whole-cell patch clamp; HEK-293T; concentration not given).
`CC(C)Oc1ccc(CNCCC2(C(C)C)CCOC(C)(C)C2)cc1` (centres unmarked) has a translation activity of 63.5% (Trypanosoma cruzi; reporter mRNA translation, inhibitor, item: Renilla luciferase mRNA; cell-free extract; concentration not given, test 1; baseline: positive over negative control).
With `CC(C)[C@@H]1NC(=O)[C@H](Cc2ccccc2)NC(=O)CSC[C@@H](C(N)=O)NC(=O)[C@H](CCC(=O)O)NC(=O)[C@H](CO)NC(=O)[C@H](Cc2c[nH]c3cccc(Cl)c23)NC(=O)[C@H](C2CCCCC2)NC(=O)[C@H](C(C)C)NC(=O)[C@H](Cc2ccc(O)cc2)NC(=O)[C@H](CC(=O)O)NC(=O)[C@H](Cc2c[nH]c3ccccc23)NC(=O)[C@H](Cc2ccc(N)nc2)NC(=O)[C@H](Cc2c[nH]c3ccc(Cl)cc23)NC(=O)[C@H](CCC(=O)O)NC1=O` the remaining activity was 70.3% (Interleukin-1 receptor-like 2 (IL1RL2, Homo sapiens, UniProt Q9HB29); reporter gene (SEAP), inhibitor, HEK-Blue IL-36R reporter; HEK-Blue IL-36R cells; 3.7 µM, 6 h, together with: IL-36β 3 ng/mL).
For `CCOC(=O)c1ccc2c(c1)C1CC(C)(N2)c2c(C)nc3ccc(C(=O)OCC)cc3c21` (centres unmarked), the koff was 0.0292 s⁻¹ (Glideosome-associated protein 50 (GAP50, Plasmodium falciparum, UniProt Q8I2X3); binding, surface plasmon resonance; 1:1 binding model).
For `CCCCCC(O)/C=C/C=O` (centres unmarked), the SILAC-ABPP ratio was 20 (Adenomatous polyposis coli protein, isoform long (APC, Homo sapiens, UniProt P25054); ATP probe labelling, acylphosphate-ATP probe SILAC-ABPP; ZAK-transfected HEK293T proteome; 100 µM, 30 min; baseline: DMSO over compound, higher = stronger blockade).
The remaining activity of `COC(=O)[C@@]1(C)C=C(C(=O)Nc2cccc(C(=O)Nc3ccc(Nc4nccc(-c5cccnc5)n4)c(C)c3)c2)C(=O)CC1` is reported as 0.996 and 0.986 and 0.881 (Mitogen-activated protein kinase 1 (MAPK1, Homo sapiens, UniProt P28482); enzyme activity, inhibitor; 1.646 µM, unit not given; baseline: vehicle).
`C=CC(=O)N1CCCC(n2c(=O)c3ncccc3n(Cc3ccc(Oc4ccccc4)cc3)c2=O)C1` (centres unmarked) — result for “melting temperature shift”: -3.87 (26S proteasome regulatory subunit 6A (Homo sapiens, UniProt P17980); thermal proteome profiling, item: PSMC3; unit not given; baseline: vehicle).
The binding stoichiometry of `OC[C@@H]1[C@@H](O)[C@H](O)[C@@H](O)c2nccn21` is reported as 1.02 ± 0.07 (bglA (Thermotoga maritima, UniProt Q08638); ITC; concentration not given, pH 5.8, 25 °C).
`CCc1ccc(N2CCC(O)C2)cc1` (centres unmarked) gave an inhibition of 28.2% (Uridine nucleoside ribohydrolase (Trichomonas vaginalis, UniProt A2FTT0); 19F NMR; 50 µM, together with: 0.01% Triton X-100).
The remaining binding of `Cn1cc(-c2cc(N3CCCCS3(=O)=O)ccc2N[C@H]2CC[C@H](C)CC2)c2cc[nH]c2c1=O` (stereo in doubt) is reported as 96% (Bromodomain-containing protein 9 (BRD9, Homo sapiens, UniProt Q9H8M2); binding, competition with immobilised ligand; 1 µM).
`C#CCOC(=O)[C@]1(C)C=C(C(=O)OC(C)(C)C)C(=O)CC1` — result for “normalized kinase activity”: 0.0879 and 0.0814 and 0.0733 (Mitogen-activated protein kinase 8 (MAPK8, Homo sapiens, UniProt P45983); enzyme activity, D-SENSOR; 400 µM, single replicate).
With `Cc1cnc2nc1Nc1cccc(c1)COC/C=C/COCc1cc(ccc1OCCN1CCOCC1)N2` the remaining binding was 82% (Epidermal growth factor receptor (EGFR, Homo sapiens, UniProt P00533, L858R); binding; 0.1 µM).
The cAMP luminescence of `CC(C)Oc1cc(Cl)ccc1CNc1cc(-c2ccccc2)nc2ncnn12` is reported as 46400 a.u. and 30600 a.u. and 35800 a.u. and 26100 a.u. (G-protein coupled receptor 3 (GPR3, Homo sapiens, UniProt P46089, M156A); cAMP level, cAMP GloSensor; 100 pM; higher = more cAMP).
The Emax of `COc1ccc(C2(C(=O)N3CCC(Nc4nc5ccccc5c(=O)[nH]4)CC3)CC2)cc1` is reported as 32.5 ± 3.4% (MRGPRD (Homo sapiens, UniProt Q8TDS7, F242A); miniGq recruitment, agonist, BRET; HEK293T; F242A mutant; baseline: wild type).
For `N=C(N)NCCS(=O)(=O)O`, “normalised MST signal” read 0.0177 (Sodium- and chloride-dependent taurine transporter (SLC6A6, Homo sapiens, UniProt P31641, G62A); binding, microscale thermophoresis; 62.5 µM, room temperature, together with: 50 nM labelled protein; higher = more binding).

Repeated from above:
With `O=C(O)Cc1cc2c(cc1C(=O)c1cccc(I)c1)OCO2` the current amplitude was 172 ± 16 pA (Gria1/Gria2; glutamate-evoked current, whole-cell patch clamp; HEK-293T; concentration not given).
`CC(C)Oc1ccc(CNCCC2(C(C)C)CCOC(C)(C)C2)cc1` (centres unmarked) has a translation activity of 63.5% (Trypanosoma cruzi; reporter mRNA translation, inhibitor, item: Renilla luciferase mRNA; cell-free extract; concentration not given, test 1; baseline: positive over negative control).
With `CC(C)[C@@H]1NC(=O)[C@H](Cc2ccccc2)NC(=O)CSC[C@@H](C(N)=O)NC(=O)[C@H](CCC(=O)O)NC(=O)[C@H](CO)NC(=O)[C@H](Cc2c[nH]c3cccc(Cl)c23)NC(=O)[C@H](C2CCCCC2)NC(=O)[C@H](C(C)C)NC(=O)[C@H](Cc2ccc(O)cc2)NC(=O)[C@H](CC(=O)O)NC(=O)[C@H](Cc2c[nH]c3ccccc23)NC(=O)[C@H](Cc2ccc(N)nc2)NC(=O)[C@H](Cc2c[nH]c3ccc(Cl)cc23)NC(=O)[C@H](CCC(=O)O)NC1=O` the remaining activity was 70.3% (Interleukin-1 receptor-like 2 (IL1RL2, Homo sapiens, UniProt Q9HB29); reporter gene (SEAP), inhibitor, HEK-Blue IL-36R reporter; HEK-Blue IL-36R cells; 3.7 µM, 6 h, together with: IL-36β 3 ng/mL).
For `CCOC(=O)c1ccc2c(c1)C1CC(C)(N2)c2c(C)nc3ccc(C(=O)OCC)cc3c21` (centres unmarked), the koff was 0.0292 s⁻¹ (Glideosome-associated protein 50 (GAP50, Plasmodium falciparum, UniProt Q8I2X3); binding, surface plasmon resonance; 1:1 binding model).
